Measurements from different studies.
Compare with care: the assays were run in different laboratories.
RPS6KA4 N-terminal kinase domain: Ribosomal protein S6 kinase alpha-4, N-terminal kinase domain (RPS6KA4, Homo sapiens, UniProt O75676)
RPS6KA4 C-terminal kinase domain: Ribosomal protein S6 kinase alpha-4, C-terminal kinase domain (RPS6KA4, Homo sapiens, UniProt O75676)

Structure (SMILES) | target | read-out | action | technique | tested at | reference | remaining binding [%]
Cc1ccc(-c2c(/C=C(\C#N)C(=O)NC(C)C)n(CCCO)c3ncnc(N)c23)cc1 | RPS6KA4 N-terminal kinase domain | binding | – | competition with immobilised ligand | 1 µM | – | 100
COc1cc(Nc2nc(C)cc(-c3cnn4nc(OC)ccc34)n2)cc(C(F)(F)F)c1 | RPS6KA4 C-terminal kinase domain | binding | – | competition with immobilised ligand | 1 µM | – | 84
CCN1CCN(Cc2ccc(NC(=O)c3ccc(C)c(NC(=O)c4cncc(-c5cccs5)c4)c3)cc2C(F)(F)F)CC1 | RPS6KA4 N-terminal kinase domain | binding | – | competition with immobilised ligand | 1 µM | – | 25
COc1c(Cl)cccc1Nc1c(-c2ccncc2C#C[C@@]2(C)CCCN2C(=O)/C=C/CN(C)C)[nH]c2c1C(=O)NCC2 | RPS6KA4 N-terminal kinase domain | binding | – | competition with immobilised ligand | 3 µM | – | 100
CC(C)=CC1OC(C)(C)C2C=C3C(=O)C(Cl)=CC(O)C3C3C(O)C4OC4C(=O)C132 (stereo not drawn) | RPS6KA4 N-terminal kinase domain | – | binder | KINOMEscan competition binding | 10 µM | DMSO control | 97
CNC(=O)C1CCN(c2cc(C)c(F)cc2NC(=O)c2ccc(-c3cc(O)ccc3C)c(C)c2)CC1 | RPS6KA4 C-terminal kinase domain | binding | – | competition with immobilised ligand | 1 µM | – | 72
C=CC(=O)N1CCCC(n2c(=O)c3ncccc3n(Cc3ccc(Oc4ccccc4)cc3)c2=O)C1 (stereo not drawn) | RPS6KA4 N-terminal kinase domain | binding | – | competition with immobilised ligand | 1 µM | – | 100
COc1cc(Nc2nccc(-c3cnn4nc(OC)ccc34)n2)cc(C(F)(F)F)c1 | RPS6KA4 C-terminal kinase domain | binding | – | competition with immobilised ligand | 1 µM | – | 87
Nc1ncc2c(n1)-c1c([nH]c3ccc(C4=CCOCC4)cc13)CCC2 | RPS6KA4 C-terminal kinase domain | binding | – | competition with immobilised ligand | 1 µM | – | 87
CNC1C[S+]2CC[S+]3CC[S+](C1)[Ru-4]321([N]=C=S)[n]2c3ccc(OC)cc3c3c4c(c5cc(F)c[n+]1c5c32)C(=O)NC4=O (stereo not drawn) | RPS6KA4 N-terminal kinase domain | – | – | KinomeScan | 0.1 µM | untreated | 77
CCN1CCN(Cc2ccc(C(=O)Nc3ccc(C)c(NCc4cnc5[nH]ccc5c4OC)c3)cc2C(F)(F)F)CC1 | RPS6KA4 N-terminal kinase domain | binding | – | competition with immobilised ligand | 1 µM | – | 70
Cc1cnc2nc1Nc1cccc(c1)COC/C=C/COCc1cc(ccc1OCCN1CCOCC1)N2 | RPS6KA4 C-terminal kinase domain | binding | – | competition with immobilised ligand | 0.1 µM | – | 90
